# Measured values from different studies.
# Numbered parts are unrelated; each lists some results of a single study.

# Series 1 — method: RNA Bind-n-Seq; form: RNA; sample: in vitro; tested at: 365 nM; relative to: no-protein control; direction: higher = stronger binding
# Target: RNA binding protein fox-1 homolog 2, RRM domain, GST-SBP tag (RBFOX2, Homo sapiens, UniProt O43251-10, residues 100-194)
# Notes: natural RNA segment, single round, ends assumed
# Shared flanks, not repeated: GGGAGUUCUACAGUCCGACGAUC … UGGAAUUCUCGGGUGCCAA
# Construct (chain): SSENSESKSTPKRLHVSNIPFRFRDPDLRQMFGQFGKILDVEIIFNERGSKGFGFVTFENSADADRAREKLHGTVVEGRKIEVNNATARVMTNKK
Oligonucleotide,RBNS enrichment (R)
AGGUCAGCCAUUCGGAAGCUGGCAGCAUUUUAUCGCAACUUUGAGCAUCUCAGAUGGGGAAGGCACCUUCUUCCUCGCCUCUCCAGAUUGUCCUGGAACCUCCAGGAUCC,0.782
GUACUGGACUACCACAGGUUUUUAGGAACUAAGGUGUUUCUCAUAAACACAAAAUGUUGGGUGAAACUGGGAACAACUACUCAGAAGCUCAUUUAUUUGCUUAAAUGGAA,0.317
UACUUCGUAUGUUAAUAGUUGUUCUGAUAAAUCAUGCAAUUAAAGUAAAGUGAUGCAACAUCUUGUAUACUGAUAGUGGUUAUUGCCAGUCAUGCUUGAUUACCUGCAUU,0.373
UCUUGUUUCAGCUCUUGGCCUUUACCCAUGACUCAGCCUGGGGGCUGGUGCCGGCCUUGCCUGCAGCAAUGUAGCUGAGGACUGGUCUGAAGGCCAGGAGCCCUGUGCUC,0.337
GAGCGCGUGCGGGCAGCCCGCAUGCUGCUGGCCAGGAGCCCCCAGUGCCCUGUGGUGGUGGACACAAUGCAGAACCAGAGCAGCCAGCUCUACGCGGCCCUGCCUGAGAG,0.474
UUCUGUGACUGUCUUAGGUGAUGUGUAGCCCCCUCCACCUUUCCACUCAACAACCUCCCACCCCUGUCCUGCUGCAUGGUCCGGAGUCUGGGACCUACUUUGUUUUUUGU,1.03
AAGCUCCCUAGAGGGGCAAAAGAUGGAGUGAGCCACAGGAAGUUUGGGGCGUGGUGAGUUGGAAUGAUACGUCCAUUUCUCUAUGAAAUAUUUGCUACUAGACUGUUCAU,1.67
GCCUAAUAAACCUGUGUGCACUCCUUUAGGUCCCAGCACUUUCUUCCUAUGGGUGGUCCAGACAAAAGUAUGUCCUCCUGUAGGACGCUAGAGGGCGCUCUAGGACAGCG,0.427
GGAAGAUUGUUCUGACCGUCACAAAUUGUAGUGCCUGAAAACACUUAACACUGAUUGUCUAAGAGAUGAAAGUCCUCCAAAGAUGACACAGGAAAAAUACUACAAGUAAU,0.185
UUUUGCACUGUUUGUUCCCCGCUGUGUUUUGAGCUAGAACAAGGAGUUGCCUGGGAUUGGGAGCUGUGGGUGGUGCAAGUCAGGGAGUGGGCCAGGAGAGGCCCGGGUUU,1.37
GAGUGCUAGGUAGGAAUGGCCACAGUUUGAAGAGCUAGAAAUAGCCUUAGGUCGGGCUUCUGUUAUGUGCUUUCCAGAAGCAGUUUUUACAACUGUAGGUAAGGUUGUAA,1.07
UAUCACACCAUCGCUGGCCCCUUUGGGCCCUGCAUGUAGUGUGGGAGGCUCCUGUUAGCUCCUCACUGUGGUAAAUGCCACACACCUUUAAGUAGAUAAGCAGACGAUAG,0.431

# Series 2 — method: competition protein-binding microarray; form: double-stranded DNA, one strand shown; sample: in vitro; tested at: 2 µM; together with: Cbf1 competitor, 0.05 µM; direction: higher = stronger binding; shared flanks, not repeated: … GTCTTGATTCGCTTGACGCTGCTG
# Target: Phosphate system positive regulatory protein PHO4, full length, GST-tagged (PHO4, Saccharomyces cerevisiae, UniProt P07270, residues 1-312)
# Notes: whole 60-bp probe, lowest competitor level
# Residues (chain): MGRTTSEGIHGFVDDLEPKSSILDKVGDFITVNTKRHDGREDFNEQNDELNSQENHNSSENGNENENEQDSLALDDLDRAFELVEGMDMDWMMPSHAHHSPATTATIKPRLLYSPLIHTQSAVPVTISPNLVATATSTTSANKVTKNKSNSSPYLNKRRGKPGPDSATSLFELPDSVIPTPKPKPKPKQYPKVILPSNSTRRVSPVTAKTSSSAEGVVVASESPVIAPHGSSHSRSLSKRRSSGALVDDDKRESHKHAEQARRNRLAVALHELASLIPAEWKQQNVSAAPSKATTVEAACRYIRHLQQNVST
Oligonucleotide,fluorescence intensity [a.u.]
AAAGCGGTAATTTGCGATGTGGGTGCAGATATCTAT,4470
ACCGCAATGGCGCTTCACGTGTTGGGTAACCACAAC,12900
CTTTCCCGATCTTGTCACGTCACTTTAGCACATTTG,5380
CTCAAGCTTATGGTTCACGTTATAGAACACAGGAGA,6010
GTCCAACAAGTATAACAGGTGATACACATAGAAAGA,5130
AGCGGGGTAACCCATCACGTGGGTAGCCATTTTTCC,16200
TCGCCGGACCAAGTTTCCGTGATGGTCGTTCTAGGA,3760
GACCACAAAAGGATGCACGATCAGAAGCACTGTACC,7440
CATACCCAACCTTTTCACGTGCCATAAGATATTTGT,15800
ACCCTGAGAATTGGCACCGTGACGGTATTGATTCCA,6260
AAAGCGGTAATTTGTCCAGTGGGTGCAGATATCTAT,3980
CGGATCGCATTATTGCACGATATCGCCGAATCTTTA,6500
GTCTTGTCTCATTGGCTTGTGGGTGTCCCCACTTCA,5350
GGGACAACGGCTTGCTAGGTGCATTTACTTCATTCA,3450
GAAGTCTCCAAACTCCACGTGTTGGTATTTCTCGTA,15800
GTTTGGTGCAGTGGCCACGAGGTGACTGCGACAGTC,10800
CCTAGGACTTTGAAGGGCGTGCTAAGTGGGGAGCCG,7970

# Series 3 — method: protein-binding microarray; form: double-stranded DNA, one strand shown; sample: in vitro; tested at: 940 nM top; notes: 60-bp whole probe; together with: salmon DNA 0.4 mg/ml; relative to: random background probes; direction: higher = stronger binding; shared flanks, not repeated: GCCTAGCAC … GTCTTGATTCGCTTGACGCTGCTG
# Target: Interferon regulatory factor 5, full length, phosphomimetic (IRF5, Homo sapiens, UniProt Q13568-2, residues 1-514, S451D/S453D/S456D/S462D)
Oligonucleotide,fitted relative affinity [z-score]
TTAGGATTGGACTATCGGTTAGTGCTA,-0.0393
GACAGTATCGACTTTCGGGACGTGCTA,5
GACGGACTGGCTTTCGGGACGTGCTAG,0.0357
GACGGTTCCGGTTTCTGGACGTGCTAG,3.44
TTTACTTTCTATCTCTGTTTGTGCTAG,4.2
GACGGTATCAGTTTCGAGACGTGCTAG,5.35
CTCCCTCAGGGTTTCAGATGGTGCTAG,0.0318
GACGGTTTCGATTTCGGGACGTGCTAG,10.5
TGAGGTCTCGGTTTCGGTTAGTGCTAG,8.75
CCCAATAATCTTTTCACTTTGTGCTAG,1.55
TTAGATTTCAGTATAGATTAGTGCTAG,0.841
CTAGGTTTCCTTTCCCTTTAGTGCTAG,1.82
GATGATATCAGACTGGAGACGTGCTAG,-0.558
TCATGTGCCCATCTCTGACTGTGCTAG,-0.0076
TTAGGTATCGGGAGTGGGTTAGTGCTA,4.02
TTAGCACTGGGGTATCGGTTAGTGCTA,3.1
TATCATTTAATTATATGGCTGTGCTAG,1.13
TCATCTCTGCTTGTATCACTGTGCTAG,1.43
TTAGGACTGGATCTCGGTTAGTGCTAG,0.216
TCAGGACTGGGGTTTCGGTTAGTGCTA,6.05
GACGATTTCATTCTCGAGACGTGCTAG,1.92
ATAGATATCAGTATCGATTAGTGCTAG,5.02
GGTTTTCTAATGTTTTTTAAAGTGCTA,1.24
TTAGGTCTCGTTATCGGTTAGTGCTAG,3.37
TTAGGTCTCGGTTTCGGGTAGTGCTAG,7.46

# Series 4 — method: RNA Bind-n-Seq; form: RNA; sample: in vitro; tested at: 200 nM; notes: whole 134-nt RNA, ends assumed; together with: 150 mM KCl; relative to: input library; direction: higher = stronger binding
# Target: Fragile X messenger ribonucleoprotein 1, C-terminal low-complexity region (Fmr1, Mus musculus, UniProt P35922)
# Shared flanks, not repeated: GGGAGUUCUACAGUCCGACGAUC … UGGAAUUCUCGGGUGUCAAGG
Oligonucleotide,log2 enrichment
GCAGGAAGUAAAAACAAAUGGAAAUGCUUCGGAUAGUGGCAGGGGUGGGGGUUGCUAAUGAAAGGGUGGGAUGGGAGUGGGUAAAGAGUU,0.00591
UGGAGAGGGAAGUCCCAAUGGUGCUAGAAUGGUGCUGCAGUGGCAGAAGACGGCUCACAAGUGAGGUCUGGAAGAACAACAGGGAAGACA,0.181
GUCCUGUGCUACACAUCGUAUGUACCGAAUCGGUUUUUUUGGUUUUUGGUUUUUUUGGAAAGUAUUAUGUUACGCCGUUCGGAUCUGCAC,-0.742
CACAGACAACACGCACCCACACAGACACAGAGGGAAGGGGUGGGGAUGGGGACAGGGUGCACAGCAGGGCGGGGUAGGACCCCAGCCCCU,1.21
AGUCCUGUGCUACACAUCGUAUGUACCGAAUCGGGUUUUUUUGGGAGGGAAAAAGGGAAAGUAUUAUGUUACGCCGUUCGGAUCUGCACU,0.361
ACCAUGCAGGUGGGCAUCUUUGGGAAGUGGGGCAAGGGGGGGAUAGGGAGGGGGGUAACACUUUGGGGACAGGUGGUCCCAGGUCGUUUC,0.731
GUCCUGUGCUACACAUCGUAUGUACCGAAUCGUGUGUGUGUGUGUGUGUGUGUGUGUGAAAGUAUUAUGUUACGCCGUUCGGAUCUGCAC,0.673
CUCAAGUCCUGUGCUACACAUCGUAUGUACCGAAUCGGGGUGGGUGGGGUGGGAAAGUAUUAUGUUACGCCGUUCGGAUCUGCACUUCCA,1.01
CAAGUCCUGUGCUACACAUCGUAUGUACCGAAUCGGGAGGGAAAAAAAGGGUGGGAAAGUAUUAUGUUACGCCGUUCGGAUCUGCACUUC,0.683
CAAGUCCUGUGCUACACAUCGUAUGUACCGAAUCGGGGCCCGGCCCGGGGCCCGGAAAGUAUUAUGUUACGCCGUUCGGAUCUGCACUUC,-0.78
UCCUCAAGUCCUGUGCUACACAUCGUAUGUACCGAAUCGGUUUGGUGGUGGAAAGUAUUAUGUUACGCCGUUCGGAUCUGCACUUCCAGC,-0.175
GUCCUGUGCUACACAUCGUAUGUACCGAAUCGGGGCCCCCGGGGCCCCCGGGCCCCCGGAAAGUAUUAUGUUACGCCGUUCGGAUCUGCA,0.444
CAAGUCCUGUGCUACACAUCGUAUGUACCGAAUCGGGGAGGGGUGGGGUUUGGGGAAAGUAUUAUGUUACGCCGUUCGGAUCUGCACUUC,1.44
ACCAUGCAAGUGGGCAUCUUUGGGAAGUGGGGCAAGGGGGGGAUAGGGAGGGGGGUAACACUUUGGGAACAGGUGGUCCCAGGUCGUUUC,0.735

# Excerpt of the above (series 3):
Oligonucleotide,fitted relative affinity [z-score]
TCATCTCTGCTTGTATCACTGTGCTAG,1.43
TTAGGTCTCGGTTTCGGGTAGTGCTAG,7.46
TTTACTTTCTATCTCTGTTTGTGCTAG,4.2
GGTTTTCTAATGTTTTTTAAAGTGCTA,1.24
TTAGCACTGGGGTATCGGTTAGTGCTA,3.1
GATGATATCAGACTGGAGACGTGCTAG,-0.558
GACGATTTCATTCTCGAGACGTGCTAG,1.92
TTAGATTTCAGTATAGATTAGTGCTAG,0.841
GACGGTTTCGATTTCGGGACGTGCTAG,10.5
GACGGTTCCGGTTTCTGGACGTGCTAG,3.44
